# Measured values gathered from unrelated publications.
# Compare with care: the assays were run in different laboratories. Numbers after ± are the reported error.
SMILES,test,test system,setting,scale,measurement,value
N=C(N)NCCC[C@@H]1NC(=O)[C@H](CCCCNC(=O)CC[C@H](NC(=O)CC[C@H](NC(=O)CN2CCN(CC(=O)O)CCN(CC(=O)O)CCN(CC(=O)O)CC2)C(=O)N[C@@H](CCC(=O)NCCCC[C@@H]2NC(=O)[C@@H](Cc3ccccc3)NC(=O)[C@H](CC(=O)O)NC(=O)CNC(=O)[C@H](CCCNC(=N)N)NC2=O)C(=O)NCCCC[C@@H]2NC(=O)[C@@H](Cc3ccccc3)NC(=O)[C@H](CC(=O)O)NC(=O)CNC(=O)[C@H](CCCNC(=N)N)NC2=O)C(=O)NCCCC[C@@H]2NC(=O)[C@@H](Cc3ccccc3)NC(=O)[C@H](CC(=O)O)NC(=O)CNC(=O)[C@H](CCCNC(=N)N)NC2=O)NC(=O)[C@@H](Cc2ccccc2)NC(=O)[C@H](CC(=O)O)NC(=O)CNC1=O [indium-111 labelled],,"female athymic nu/nu mice, blood","intravenous, 4 h",,tissue uptake,0.12 ± 0.05 %ID/g
CN1C(=O)[C@@H](Cc2ccc(O)cc2)NC(=O)CNC(=O)[C@H](Cc2ccc3ccccc3c2)NC(=O)[C@H](CCCNC(=N)N)NC(=O)[C@H]1CCCNC(=O)c1ccc(CNC(=O)CN2CCN(CC(=O)O)CCN(CC(=O)O)CCN(CC(=O)O)CC2)cc1 [gallium-68 labelled],MIRD OLINDA/EXM dosimetry,"adult male human, heart wall",extrapolated from C57BL/6 mice,,absorbed dose coefficient,0.0393 ± 0.0134 mGy/MBq
CCCC[C@H](NC(=O)CCCCCCCNC(=O)CN1CCN(CC(=O)O)CCN(CC(=O)O)CC1)C(=O)N[C@H]1CC(=O)NCCCC[C@@H](C(N)=O)NC(=O)[C@H](Cc2c[nH]c3ccccc23)NC(=O)[C@H](CCCNC(=N)N)NC(=O)[C@@H](Cc2ccccc2)NC(=O)[C@H](Cc2c[nH]cn2)NC1=O [copper-64 labelled],,"C57 mice, blood","intravenous, 0.37 MBq, 2 h",,tissue uptake,0.27 ± 0.05 %ID/g
COC(=O)[C@H](CSSC(C)(C)[C@H](NC(=O)[C@H](CCC(=O)NC[C@H](O)[C@@H](O)[C@H](O)[C@H](O)CO)NC(=O)[C@H](CCC(=O)O)NC(=O)[C@H](CCC(=O)NC[C@H](O)[C@@H](O)[C@H](O)[C@H](O)CO)NC(=O)[C@H](CCC(=O)O)NC(=O)[C@H](CCC(=O)NC[C@H](O)[C@@H](O)[C@H](O)[C@H](O)CO)NC(=O)CC[C@H](NC(=O)c1ccc(NCc2cnc3nc(N)[nH]c(=O)c3n2)cc1)C(=O)O)C(=O)O)NC(=O)CC[C@H](NC(=O)c1ccc(NCc2cnc3nc(N)[nH]c(=N)c3n2)cc1)C(=O)O,,human liver cytosol,"1 µM, 1 h, 37 °C, acidic pH",baseline: pH 7.4,AMT release fold change,≥ 4 fold
COc1ccc2cc([C@H](C)C(=O)N[C@H](Cc3ccccc3)C(=O)N[C@H](Cc3ccccc3)C(=O)N[C@H](Cc3ccc(O)cc3)C(=O)O)ccc2c1,,hydrogel 0.8 wt% into PBS,"24 h, pH 7.4, 37 °C",,cumulative release,8%
CC(C)C[C@@H](NC(=O)[C@@H](CC(C)C)NC(=O)[C@@H](CC(=O)O)NC(=O)[C@@H](CC(C)C)NC(=O)[C@@H](CC(C)C)NC(=O)[C@@H](CC(C)C)NC(=O)[C@H](NC(=O)[C@@H](CC(=O)O)NC(=O)[C@H](NC(=O)[C@H]1CCCN1C(=O)[C@@H](Cc1ccccc1)NC(=O)[C@@H](CC(C)C)NC(=O)[C@@H](CC(C)C)NC(=O)[C@@H](CC(=O)O)NC(=O)[C@@H](CC(C)C)NC(=O)[C@@H](Cc1ccc(O)cc1)NC(=O)[C@@H](C)NC(=O)[C@@H](CCCNC(=N)N)NC(=O)[C@@H](Cc1c[nH]c2ccccc12)NC(=O)[C@H]1CCCN1C(=O)[C@@H](CC(N)=O)NC(=O)[C@@H](CCC(N)=O)NC(=O)[C@@H](CC(=O)O)NC(=O)[C@@H](CC(=O)O)NC(=O)[C@@H](CSC1CC(=O)N(CCNC(=O)CN2CCN(CC(=O)O)CCN(CC(=O)O)CC2)C1=O)NC(=O)[C@@H](C)N)[C@H](C)O)[C@H](C)O)C(=O)N[C@H](Cc1c[nH]c2ccccc12)C(=O)O (stereo partly shown) [copper-64 labelled],,"male nude mice, LNCaP xenograft","intravenous, 4 h",baseline: tumour over bone,tumour-to-bone ratio,4.2 ± 1.7
N=C(N)NCCC[C@@H]1NC(=O)[C@H](CCCCNC(=O)CNC(=O)CNC(=O)CNC(=O)CC[C@H](NC(=O)CNC(=O)CNC(=O)CNC(=O)CC[C@H](NC(=O)CN2CCN(CC(=O)O)CCN(CC(=O)O)CCN(CC(=O)O)CC2)C(=O)NCC(=O)NCC(=O)NCC(=O)N[C@@H](CCC(=O)NCC(=O)NCC(=O)NCC(=O)NCCCC[C@@H]2NC(=O)[C@@H](Cc3ccccc3)NC(=O)[C@H](CC(=O)O)NC(=O)CNC(=O)[C@H](CCCNC(=N)N)NC2=O)C(=O)NCC(=O)NCC(=O)NCC(=O)NCCCC[C@@H]2NC(=O)[C@@H](Cc3ccccc3)NC(=O)[C@H](CC(=O)O)NC(=O)CNC(=O)[C@H](CCCNC(=N)N)NC2=O)C(=O)NCC(=O)NCC(=O)NCC(=O)NCCCC[C@@H]2NC(=O)[C@@H](Cc3ccccc3)NC(=O)[C@H](CC(=O)O)NC(=O)CNC(=O)[C@H](CCCNC(=N)N)NC2=O)NC(=O)[C@@H](Cc2ccccc2)NC(=O)[C@H](CC(=O)O)NC(=O)CNC1=O [indium-111 labelled],,"female athymic nu/nu mice, kidney","intravenous, 72 h",,tissue uptake,3.45 ± 0.9 %ID/g
C=C1CC[C@H](OCCCNC(=O)CCOCCOCCOCCOCCOCCOCCOCCOCCOCCOCCOCCOCCOCCOCCOCCOCCOCCOCCOCCOCCOCCOCCOCCOCCOCCOCCOCCOCCOCCOCCOCCOCCOCCOCCOCCOCCNC(=O)CCN2C(=O)CC(SC[C@H](NC(=O)[C@H](Cc3ccccc3)NC(=O)[C@H](CC(N)=O)NC(=O)[C@H](Cc3c[nH]cn3)NC(=O)[C@@H](NC(=O)[C@H](CC(=O)O)NC(=O)[C@H](CCC(N)=O)NC(=O)[C@H](CC(C)C)NC(=O)[C@H](CCCCN)NC(=O)[C@H](CCCCN)NC(=O)[C@H](CCCNC(=N)N)NC(=O)[C@H](CC(C)C)NC(=O)[C@H](Cc3c[nH]c4ccccc34)NC(=O)[C@H](CCC(=O)O)NC(=O)[C@@H](NC(=O)[C@H](CCCNC(=N)N)NC(=O)[C@H](CCC(=O)O)NC(=O)[C@H](CCSC)NC(=O)[C@H](CO)NC(=O)[C@H](CC(N)=O)NC(=O)[C@H](CC(C)C)NC(=O)[C@H](Cc3c[nH]cn3)NC(=O)[C@H](CCCCN)NC(=O)CNC(=O)[C@H](CC(C)C)NC(=O)[C@H](CC(N)=O)NC(=O)[C@H](Cc3c[nH]cn3)NC(=O)[C@H](CCSC)NC(=O)[C@H](CC(C)C)NC(=O)[C@H](CCC(N)=O)NC(=O)[C@@H](NC(=O)[C@H](CCC(=O)O)NC(=O)[C@H](CO)NC(=O)[C@@H](NC(=O)[C@@H](N)CO)C(C)C)[C@@H](C)CC)C(C)C)C(C)C)C(N)=O)C2=O)C/C1=C/C=C1\CCC[C@]2(C)[C@@H]([C@H](C)CCCC(C)(C)O)CC[C@@H]12 (stereo partly shown),,cynomolgus monkey,"sc, 7 µg/kg every other day, 21 days",baseline: 0.7 µg/kg dose,dose-normalised Cmax,0.99
N=C(N)NCCC[C@@H]1NC(=O)[C@H](CCCCNC(=O)CNC(=O)CNC(=O)CNC(=O)CC[C@H](NC(=O)CNC(=O)CNC(=O)CNC(=O)CN2CCN(CC(=O)O)CCN(CC(=O)O)CCN(CC(=O)O)CC2)C(=O)NCC(=O)NCC(=O)NCC(=O)NCCCC[C@@H]2NC(=O)[C@@H](Cc3ccccc3)NC(=O)[C@H](CC(=O)O)NC(=O)CNC(=O)[C@H](CCCNC(=N)N)NC2=O)NC(=O)[C@@H](Cc2ccccc2)NC(=O)[C@H](CC(=O)O)NC(=O)CNC1=O [indium-111 labelled],,"female athymic nu/nu mice, intestine","intravenous, 24 h",,tissue uptake,3.77 ± 0.07 %ID/g
Cc1cc(-c2ccc(NC(=O)[C@H](CCCCNC(=O)CCOCCOCCC(=O)N[C@H](Cc3ccccc3)C(=O)N[C@H]3CSSC[C@@H](C(=O)N[C@H](C(=O)O)[C@@H](C)O)NC(=O)[C@H]([C@@H](C)O)NC(=O)[C@H](CCCCN)NC(=O)[C@@H](Cc4c[nH]c5ccccc45)NC(=O)[C@H](Cc4ccc(O)cc4)NC3=O)NC(=O)CN3CCN(CC(=O)O)CCN(CC(=O)O)CCN(CC(=O)O)CC3)c(C)c2)ccc1N=Nc1ccc2c(S(=O)(=O)O)cc(S(=O)(=O)O)c(N)c2c1O [lutetium-177 labelled],,"metastatic neuroendocrine tumour patients, whole body",intravenous,,whole-body effective half-life,105 ± 12.3 h

# Repeated from above:
SMILES,test,test system,setting,scale,measurement,value
N=C(N)NCCC[C@@H]1NC(=O)[C@H](CCCCNC(=O)CC[C@H](NC(=O)CC[C@H](NC(=O)CN2CCN(CC(=O)O)CCN(CC(=O)O)CCN(CC(=O)O)CC2)C(=O)N[C@@H](CCC(=O)NCCCC[C@@H]2NC(=O)[C@@H](Cc3ccccc3)NC(=O)[C@H](CC(=O)O)NC(=O)CNC(=O)[C@H](CCCNC(=N)N)NC2=O)C(=O)NCCCC[C@@H]2NC(=O)[C@@H](Cc3ccccc3)NC(=O)[C@H](CC(=O)O)NC(=O)CNC(=O)[C@H](CCCNC(=N)N)NC2=O)C(=O)NCCCC[C@@H]2NC(=O)[C@@H](Cc3ccccc3)NC(=O)[C@H](CC(=O)O)NC(=O)CNC(=O)[C@H](CCCNC(=N)N)NC2=O)NC(=O)[C@@H](Cc2ccccc2)NC(=O)[C@H](CC(=O)O)NC(=O)CNC1=O [indium-111 labelled],,"female athymic nu/nu mice, blood","intravenous, 4 h",,tissue uptake,0.12 ± 0.05 %ID/g
